Results from different studies.
Each numbered part is a random draw from the data of one study; scales do not carry over between parts. pIC50, pKi: −log10 of the molar value.
UniProt Q5BJF2, sequence (whole entry, looked up): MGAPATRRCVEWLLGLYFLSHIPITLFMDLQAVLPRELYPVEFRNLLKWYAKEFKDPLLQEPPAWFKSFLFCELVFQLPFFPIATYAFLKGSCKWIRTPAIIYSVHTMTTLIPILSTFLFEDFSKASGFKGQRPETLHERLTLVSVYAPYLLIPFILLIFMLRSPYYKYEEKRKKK

Block 1 — read-out: enzyme activity; mode: inhibitor; concentration: 0.5 µM; baseline: control
Target: Ephrin type-B receptor 2 (EPHB2, Homo sapiens, UniProt P29323)
Target sequence (P29323 1-1055): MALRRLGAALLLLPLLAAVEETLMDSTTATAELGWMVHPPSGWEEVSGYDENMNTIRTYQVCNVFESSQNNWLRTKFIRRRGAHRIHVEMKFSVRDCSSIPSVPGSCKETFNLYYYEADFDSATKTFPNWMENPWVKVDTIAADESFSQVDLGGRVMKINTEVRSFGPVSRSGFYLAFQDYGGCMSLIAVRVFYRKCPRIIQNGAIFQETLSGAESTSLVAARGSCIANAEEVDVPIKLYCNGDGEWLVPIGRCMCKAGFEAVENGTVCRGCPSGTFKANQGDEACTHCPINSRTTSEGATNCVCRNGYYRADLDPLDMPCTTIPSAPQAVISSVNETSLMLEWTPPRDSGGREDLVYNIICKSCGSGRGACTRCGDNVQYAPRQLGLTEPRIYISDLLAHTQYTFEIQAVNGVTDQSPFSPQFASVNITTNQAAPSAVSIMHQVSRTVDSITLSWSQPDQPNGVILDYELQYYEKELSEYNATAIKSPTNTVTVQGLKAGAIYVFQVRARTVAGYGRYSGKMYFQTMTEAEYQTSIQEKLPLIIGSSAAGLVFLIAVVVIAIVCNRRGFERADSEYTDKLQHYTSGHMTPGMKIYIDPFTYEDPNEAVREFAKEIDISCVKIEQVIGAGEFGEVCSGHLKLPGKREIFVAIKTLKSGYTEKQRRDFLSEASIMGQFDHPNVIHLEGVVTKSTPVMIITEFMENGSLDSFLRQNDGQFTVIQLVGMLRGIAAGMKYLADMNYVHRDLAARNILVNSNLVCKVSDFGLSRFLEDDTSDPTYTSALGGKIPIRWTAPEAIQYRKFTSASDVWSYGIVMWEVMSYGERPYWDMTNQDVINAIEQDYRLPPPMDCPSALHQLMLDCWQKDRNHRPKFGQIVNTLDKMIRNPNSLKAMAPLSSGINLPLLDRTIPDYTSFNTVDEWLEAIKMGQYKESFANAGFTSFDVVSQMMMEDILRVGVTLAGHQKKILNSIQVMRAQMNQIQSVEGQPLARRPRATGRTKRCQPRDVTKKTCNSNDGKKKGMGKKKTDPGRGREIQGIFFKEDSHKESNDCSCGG
| SMILES | remaining activity |
| --- | --- |
| CC[n+]1c(/C=C/N(C)c2ccccc2)n(-c2ccccc2)c2ccc(-c3nc4ccccc4s3)cc21 | 99.1% |
| O=C1NC(=O)C(c2c[nH]c3ccccc23)=C1c1c[nH]c2ccccc12 | 96.9% |
| O=C1Cc2c([nH]c3ccc([N+](=O)[O-])cc23)-c2ccccc2N1 | 101% |
| CC#CC(=O)Nc1cc2c(Nc3ccc(F)c(Cl)c3)ncnc2cn1 | 80.9% |
| CSc1nc(-c2ccnc(N[C@@H](C)c3ccccc3)c2)c(-c2ccc(F)cc2)[nH]1 (racemic) | 85.4% |
| O=S(=O)(NCCNC/C=C/c1ccc(Br)cc1)c1cccc2cnccc12 | 81.7% |
| Cc1cc(Nc2nc(-c3ccccc3)nc3ccccc23)n[nH]1 | 76.7% |
| CC(C)(C)n1nc(Cc2cccc3ccccc23)c2c(N)ncnc21 | 44.6% |
| N#CC(=C(N)Sc1ccc(N)cc1)c1ccccc1C(F)(F)F | 101% |
| Nc1nccc(-c2c(-c3ccc(F)cc3)ncn2C2CCNCC2)n1 | 103% |
| Fc1ccc(-c2nc3n(c2-c2ccncc2)CCS3)cc1 | 99.3% |
| CCCC(=O)Oc1ccc2[nH]c(C(=O)c3cc4ccccc4[nH]3)cc2c1 | 98.4% |
| Nc1ncnc2c1cnn2-c1ccccc1 | 96.2% |
| COc1cc(Nc2c(C#N)cnc3cc(OCCCN4CCN(C)CC4)c(OC)cc23)c(Cl)cc1Cl | 17.4% |
| CC(=O)c1ccc(N2CCOCC2)cc1O | 82.5% |
| NC(=O)c1ccc(N(C(N)=O)c2c(F)cccc2F)nc1-c1ccc(F)cc1F | 107% |
| CCc1[nH]c(-c2ccc(OC)cc2)nc1-c1ccncc1 | 111% |
| Oc1ccc(Nc2nc(-c3ccc(Cl)cc3)cs2)cc1 | 101% |
| Nc1nc(Nc2ccc(S(N)(=O)=O)cc2)nn1C(=O)c1c(F)cccc1F | 96.1% |

Block 2 — species: mouse; sample: microsomes or S9; concentration: 2 µM; time: 0.5 h
| SMILES | remaining compound |
| --- | --- |
| CC(=O)N1CCC(C(=O)N2CCN(c3cc(Cl)ccc3C)CC2)CC1 | 60% |
| OC1(CN2CCC(c3nnc4ccccn34)CC2)CCNC1 (stereo not shown) | 60.6% |
| CS(=O)(=O)c1cccc(Br)c1N1CCCC2(CNC(=O)O2)C1 (stereo not shown) | 69.9% |
| COc1ccc(COc2ncnc3sc(C)c(C)c23)cc1F | 1.74% |
| Clc1cc2nc(-c3cn[nH]c3)[nH]c2cc1Cl | 0.729% |
| CC1(C)CC(NS(=O)(=O)c2ccccc2F)CC(C)(C)N1 | 92.4% |

Block 3 — SMILES: C=CCc1ccc(O)c(-c2cc(CC=C)ccc2O)c1; read-out: chloride current
ANO1 del476-501/R541K: Anoctamin-1 (ANO1, Homo sapiens, UniProt Q5XXA6, del476-501/R541K)
UniProt Q5XXA6, sequence (whole entry, unmodified, looked up): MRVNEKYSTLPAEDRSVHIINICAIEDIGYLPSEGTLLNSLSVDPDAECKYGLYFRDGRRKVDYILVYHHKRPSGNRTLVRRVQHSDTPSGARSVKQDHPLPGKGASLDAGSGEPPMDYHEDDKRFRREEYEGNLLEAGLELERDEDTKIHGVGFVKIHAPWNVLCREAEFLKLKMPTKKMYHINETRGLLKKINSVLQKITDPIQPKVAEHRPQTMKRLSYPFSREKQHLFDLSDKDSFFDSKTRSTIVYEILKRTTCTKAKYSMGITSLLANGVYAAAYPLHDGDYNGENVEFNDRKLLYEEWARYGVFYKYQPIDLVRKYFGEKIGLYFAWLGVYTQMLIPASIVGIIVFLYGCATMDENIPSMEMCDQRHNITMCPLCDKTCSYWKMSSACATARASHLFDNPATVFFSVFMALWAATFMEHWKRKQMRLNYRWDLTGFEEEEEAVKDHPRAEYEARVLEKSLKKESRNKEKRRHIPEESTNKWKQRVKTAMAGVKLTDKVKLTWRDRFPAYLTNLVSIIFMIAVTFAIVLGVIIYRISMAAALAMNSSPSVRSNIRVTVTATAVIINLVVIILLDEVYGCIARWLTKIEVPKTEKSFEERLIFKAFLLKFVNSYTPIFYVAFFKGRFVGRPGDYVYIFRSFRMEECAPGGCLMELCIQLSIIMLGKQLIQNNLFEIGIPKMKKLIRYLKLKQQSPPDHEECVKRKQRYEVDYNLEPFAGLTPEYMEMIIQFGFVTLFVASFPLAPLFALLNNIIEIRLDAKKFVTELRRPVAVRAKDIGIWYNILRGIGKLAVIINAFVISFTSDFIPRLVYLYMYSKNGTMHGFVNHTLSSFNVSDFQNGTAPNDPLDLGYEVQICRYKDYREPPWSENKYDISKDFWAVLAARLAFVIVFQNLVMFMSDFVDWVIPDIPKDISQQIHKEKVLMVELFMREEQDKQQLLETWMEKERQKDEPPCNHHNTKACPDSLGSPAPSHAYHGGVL
| target | mode | technique | notes | pIC50 |
| --- | --- | --- | --- | --- |
| Anoctamin-1 (ANO1, Homo sapiens, UniProt Q5XXA6, del476-501/R561A) | inhibitor | whole-cell patch clamp | 300 nM Ca2+, 100 mV | 4.53 |
| Anoctamin-1 (ANO1, Homo sapiens, UniProt Q5XXA6, del476-501/E649K) | inhibitor | whole-cell voltage clamp | E623K mutant at 100 mV | 3.89 |
| ANO1 del476-501/R541K | inhibitor | whole-cell voltage clamp | R515K mutant at -100 mV | 4.58 |
| ANO1 del476-501/R541K | inhibitor | whole-cell voltage clamp | R515K mutant at 20 mV | 4.77 |
| Anoctamin-1 (ANO1, Homo sapiens, UniProt Q5XXA6, del476-501/E649D) | inhibitor | whole-cell voltage clamp | E623D mutant at -80 mV | 4.03 |
| ANO1 del476-501/R541K | inhibitor | whole-cell voltage clamp | R515K mutant at 60 mV | 4.69 |
| Anoctamin-1 (ANO1, Homo sapiens, UniProt Q5XXA6, del476-501/R541I) | inhibitor | whole-cell voltage clamp | R515I mutant at 60 mV | 4.14 |
| Anoctamin-1 (ANO1, Homo sapiens, UniProt Q5XXA6, del476-501/F627A) |  | whole-cell voltage clamp | membrane voltage 40 mV | 4.69 |
| Anoctamin-1 (ANO1, Homo sapiens, UniProt Q5XXA6, del476-501/F807A) |  | whole-cell voltage clamp | membrane voltage -100 mV | 4.52 |

Block 4 — cell line: A-375; concentration: 100 µM; time: 36 h
| SMILES | viability |
| --- | --- |
| COc1cc(OC)c(C(=O)CCCN2CCCC2)c(OC)c1 | 125% |
| CCc1nn(CCCN2CCN(c3cccc(Cl)c3)CC2)c(=O)n1CCOc1ccccc1 | 1.26% |
| Nc1ccc2cc3ccc(N)cc3nc2c1 | 7.04% |
| COc1cc(C[C@H]2C(=O)OC[C@@H]2Cc2ccc(OC)c(OC)c2)ccc1O | 75.3% |
| O=C(NCCN1CCOCC1)c1ccc(Cl)cc1 | 101% |
| CC(=O)OC(C)C[N+](C)(C)C (stereo not shown) | 106% |

Single results of other studies
| SMILES | tested on | assay | conditions | endpoint | value |
| --- | --- | --- | --- | --- | --- |
| C[C@H](c1cccc(C#N)c1)n1cc(Cl)cc(C(N)=O)c1=N | Sigma intracellular receptor 2 (TMEM97, Homo sapiens, UniProt Q5BJF2) | binder, radioligand binding |  | pKi | 5.35 |
| CC(C)C[C@@H]1NC(=O)[C@H](CC(C)C)NC(=O)[C@@H](CC(C)C)NC(=O)[C@H](C(C)C)NC(=O)[C@H](C)NC(=O)[C@H](C)NC(=O)[C@H](CCC(=O)N2CCCC2)NC1=O |  |  | pH 7.4 | logD | -2.77 |
| Cn1cncc1[C@@](O)(COc1ccc(C#N)cc1-c1ccc(OC(F)(F)F)cc1)c1ccc(C#N)cc1 | HEK293T | high-content imaging | 10 µM, 24 h | normal cells | 94.3% |

Repeated from above (block 1):
| SMILES | remaining activity |
| --- | --- |
| Fc1ccc(-c2nc3n(c2-c2ccncc2)CCS3)cc1 | 99.3% |
| CCCC(=O)Oc1ccc2[nH]c(C(=O)c3cc4ccccc4[nH]3)cc2c1 | 98.4% |
| Nc1ncnc2c1cnn2-c1ccccc1 | 96.2% |
| COc1cc(Nc2c(C#N)cnc3cc(OCCCN4CCN(C)CC4)c(OC)cc23)c(Cl)cc1Cl | 17.4% |
| CC(=O)c1ccc(N2CCOCC2)cc1O | 82.5% |
| NC(=O)c1ccc(N(C(N)=O)c2c(F)cccc2F)nc1-c1ccc(F)cc1F | 107% |
